Measurements collected from several papers.
Several values in a cell are separate wells, animals, samples, runs or records. ± marks the error that the study gave.
MGLL: Monoglyceride lipase (MGLL, Homo sapiens, UniProt Q99685)
EPHX2: Bifunctional epoxide hydrolase 2 (EPHX2, Homo sapiens, UniProt P34913)
CACNA1I: Voltage-dependent T-type calcium channel subunit alpha-1I (CACNA1I, Homo sapiens, UniProt Q9P0X4)
Tpo: Thyroid peroxidase (Tpo, Rattus norvegicus, UniProt P14650)
gag-pol integrase: Gag-Pol polyprotein, integrase (gag-pol, Human immunodeficiency virus 1, UniProt P12497)
CYP2C19: Cytochrome P450 2C19 (CYP2C19, Homo sapiens, UniProt P33261)

For `O=C(Nc1cccc(-c2nnc(C3CCCCC3)o2)c1)c1cnccn1`, the IC50 was 4.95 µM (α-amylase; enzyme activity, inhibitor).
`COc1cc(CCC(=O)CC(=O)CCc2ccc(O)c(OC)c2)ccc1O` gave an IC50 of at least 100 µM (3 beta-hydroxysteroid dehydrogenase/Delta 5-->4-isomerase type 2 (HSD3B2, Homo sapiens, UniProt P26439); enzyme activity, inhibitor; KGN cell homogenate; lower bound from 100 µM screen, with: pregnenolone).
`N#Cc1ccc2c(ccn2CCC2CCN(C(=O)OC(C(F)(F)F)C(F)(F)F)CC2)c1` has an IC50 of 0.7 µM (MGLL; enzyme activity, inhibitor).
`C[C@]12C[C@@H]3C[C@](C)(C1)C[C@@](NC(=O)Nc1ccc(CN4CCC[C@H](C(=O)NCCCCC(=O)NO)C4)cc1F)(C3)C2` gave an IC50 of 0.0026 µM (EPHX2; enzyme activity, inhibitor, fluorescence).
With `C=C(CC)C(=O)c1ccc(OCC(=O)O)c(Cl)c1Cl` the IC50 was 1.1 µM (Glutathione S-transferase A1 (GSTA1, Homo sapiens, UniProt P08263); enzyme activity, inhibitor, CDNB-GSH conjugation, measured: CDNB-GSH conjugate; pH 6.8, with: CDNB).
For `NC(=O)c1cccc(-c2cc(OC(=O)NC3CCCCC3)ccc2O)c1`, the IC50 was 7.18 µM (EPHX2; enzyme activity, inhibitor, fluorescence; pH 7.4).
`C[C@H](CCC(=O)NCC(=O)O)[C@H]1CC[C@H]2[C@@H]3[C@H](O)C[C@@H]4C[C@H](O)CC[C@]4(C)[C@H]3CC[C@]12C` gave an IC50 of over 200 µM (Organic solute transporter subunit alpha, with OSTβ (SLC51A, Homo sapiens, UniProt Q86UW1); DHEAS uptake, inhibitor; Flp-In 293 overexpressing OSTα/β; 30 s, with: DHEAS 4 µM).
`C=CC(C)(C)c1cc(C(=O)c2c(-c3cc(-c4cc5cc(C(C)(C)C=C)c(O)cc5oc4=O)c(O)cc3O)oc3cc(O)ccc23)c(O)cc1O` gave an IC50 of 0.006 µM (Transcription factor p65 (RELA, Homo sapiens, UniProt Q04206); NF-κB activity, inhibitor).
`C[C@H]1C[C@H]2[C@@H]3CCC4=CC(=O)C=C[C@]4(C)[C@@]3(Cl)[C@@H](O)C[C@]2(C)[C@@]1(O)C(=O)CO` gave an IC50 of over 10 µM (Proto-oncogene tyrosine-protein kinase Src (SRC, Homo sapiens, UniProt P12931); enzyme activity, inhibitor, ADP detection).
`hemin` gave an IC50 of 40 µM (Membrane-associated progesterone receptor component 2 (Homo sapiens, UniProt O15173); probe labelling, gel-based competition; transfected HEK-293T cell lysate).
`O=c1c(O)c(-c2ccc(O)c(O)c2)oc2cc(O)cc(O)c12` — result for IC50: “no inhibition” (firefly luciferase; ADP-Glo ADP processing, luminescence counter-screen; cell-free, no kinase; up to 77 µM, with: ADP 1.25 µM, ATP 11.25 µM).
The IC50 of `CSc1nccc(C(=O)N[C@@H](CCC(=O)O)C(=O)N[C@@H](Cc2ccc3ccccc3c2)C(=O)N[C@@H](CC(C)C)C(=O)NC2CC2c2ccccc2)n1` (some centres unmarked) is reported as 0.67 µM (Adenomatous polyposis coli protein, with Asef (APC, Homo sapiens, UniProt P25054); binding, fluorescence polarization competition).
For `O=C(OC(C(F)(F)F)C(F)(F)F)N1CCC(CCCn2ccc3ccc(F)cc32)CC1`, the IC50 was 0.23 µM (MGLL; enzyme activity, inhibitor).
The IC50 of `COC(=O)c1c(C)[nH]c(C)c1C(=O)c1ccccc1Cc1ccccc1` is reported as 31 µM (CACNA1I; inhibitor, FLIPR calcium; HEK293 with GCaMP6s-CAAX, Kir2.3; with: KCl at EC90).
For `O=C(Nc1cccc(-c2nnc(C3CCCCC3)o2)c1)C1CCCC1`, the IC50 was 5.25 µM (α-amylase; enzyme activity, inhibitor).
With `O=C(Nc1cc(F)c(F)c(F)c1Br)c1cc(S(=O)(=O)N2CCOCC2)c(Cl)cc1Cl` the IC50 was over 100 µM (Lysophosphatidic acid receptor 2 (LPAR2, Homo sapiens, UniProt Q9HBW0); Ca2+ mobilization, antagonist; MEF; with: LPA at EC50).
`COc1ccc(CN2CCN(C(c3ccc(F)cc3)c3ccc(F)cc3)CC2)c(OC)c1OC` gave an IC50 of 1.3 µM (CACNA1I; inhibitor, FLIPR calcium; HEK293 with GCaMP6s-CAAX, Kir2.3; with: KCl at EC90).
The IC50 of `O=C(O)c1cc(O)c(O)c(O)c1` is reported as 0.96 µM (Tpo; tyrosine iodination, LC-MS/MS; rat thyroid microsomes; with: KI 300 µM, H2O2 40 µM).
`CCOC(=O)/C(O)=C/C(=O)c1cn(Cc2ccc(F)cc2)c2cc(F)ccc2c1=O` gave an IC50 of over 333 µM (gag-pol integrase; 3'-processing, inhibitor, gel-based; with: Mg2+).
For `O=C(NNC(=O)c1ccc(CNS(=O)(=O)c2ccc(F)c(Cl)c2)cc1)c1ccccc1`, the IC50 was 0.66 µM (Glutamate NMDA receptor; Grin1/Grin2a (Grin1/Grin2a, Rattus norvegicus, UniProt P35439+Q00959, V783S); ion current, two-electrode voltage clamp; oocytes).
`C[C@]12C[C@@H]3C[C@](C)(C1)C[C@@](NC(=O)Nc1ccc(C(=O)N4CCC[C@H](C(=O)NCCCC(=O)NO)C4)cc1F)(C3)C2` has an IC50 of 0.0003 µM (EPHX2; enzyme activity, inhibitor, fluorescence).
`O=C(O)/C=C/c1ccc(O)c(O)c1`: IC50 “no inhibition” (firefly luciferase; luminescence signal, luminescence counter-screen; cell-free, after ADP processing; up to 77 µM, with: ADP 1.25 µM, ATP 11.25 µM).
With `COc1cc(CNC(=O)CCCC/C=C/C(C)C)ccc1O` the IC50 was 12 µM and 11 µM (CYP2C19; enzyme activity, inhibitor; human, liver microsomes; pH 7.4).
The IC50 of `O=c1c(O)c(-c2ccc(O)cc2)oc2cc(O)cc(O)c12` is reported as 2.74 µM and 5.45 µM (Tpo; enzyme activity, inhibitor, LC-MS/MS, measured: monoiodotyrosine; rat thyroid microsomes; with: L-tyrosine substrate).
For `C=C(C)CCOP(=O)(O)OP(=O)(O)OP(=O)(O)OC[C@H]1O[C@@H](n2cnc3c(N)ncnc32)[C@H](O)[C@@H]1O`, the IC50 was 1.5 µM (Leukocyte tyrosine kinase receptor (LTK, Homo sapiens, UniProt P29376); enzyme activity, inhibitor, HotSpot kinase; with: ATP 1 µM).
For `CN(C)[C@@H]1C(O)=C(C(N)=O)C(=O)[C@@]2(O)C(O)=C3C(=O)c4c(O)cccc4[C@@](C)(O)[C@H]3[C@H](O)[C@@H]12`, the IC50 was 3.6 µM (Ubiquitin-associated and SH3 domain-containing protein B (UBASH3B, Homo sapiens, UniProt Q8TF42); enzyme activity, inhibitor, fluorescence).
`O=C(COc1ccc(Br)cc1Br)Nc1cc(Cl)ccc1C(=O)O` gave an IC50 of 1.8 µM (Transient receptor potential cation channel subfamily M member 4 (TRPM4, Homo sapiens, UniProt Q8TD43); ion flux, inhibitor, fluorescence).
`CC(=O)N1CCN(C(=O)C2(NC(=O)Nc3ccc(C)cc3)CC2)CC1` has an IC50 of over 200 µM (Endoplasmic reticulum aminopeptidase 1, open conformation (ERAP1, Homo sapiens, UniProt Q9NZ08); enzyme activity, inhibitor, fluorogenic; partial inhibition, with: L-AMC substrate).
The IC50 of `CCn1c(C=Cc2cccnc2)nc2ccccc2c1=O` is reported as 15.3 µM (DNA repair protein RAD51 homolog 1 (RAD51, Homo sapiens, UniProt Q06609); DNA strand exchange (D-loop), inhibitor; 30 min).
`O=C(OC(C(F)(F)F)C(F)(F)F)N1CCC(Cn2ccc3ccccc32)CC1` gave an IC50 of 0.55 µM (MGLL; enzyme activity, inhibitor).
With `Cc1ncc([N+](=O)[O-])n1CC(C)O` (centres unmarked) the IC50 was over 1000 µM (CYP2C19; enzyme activity, inhibitor; human liver microsomes; 30 min, with: (S)-mephenytoin).
The IC50 of `COc1ccc([C@H](CC(=O)O)N2CCN(CCCc3ccc4c(n3)NCCC4)C2=O)cn1` is reported as 0.0005 ± 0.0002 µM (Integrin alpha-V/beta-8 (Homo sapiens, UniProt P06756+P26012); LAP binding, inhibitor, ELISA).
`O=C1c2cc3c(cc2-c2c1c1ccc(F)cc1c(=O)n2CCCNCCO)OCO3` gave an IC50 of 8.7 µM and 11.2 µM (Tyrosyl-DNA phosphodiesterase 1 (TDP1, Homo sapiens, UniProt Q9NUW8); enzyme activity, inhibitor).
For `OC1CCCc2cc(OCc3ccc(Cl)cc3)ccc21` (centres unmarked), the IC50 was 0.0075 µM (Amine oxidase [flavin-containing] B (MAOB, Homo sapiens, UniProt P27338); enzyme activity, inhibitor, fluorescence).
For `OC[C@H]1O[C@@H](n2cnc3c(O)ncnc32)[C@H](O)[C@@H]1O`, the IC50 was 2.7 µM (Nucleoside transporter 1 (Plasmodium vivax, UniProt A5K8B0); adenosine uptake, inhibitor; yeast expressing Nucleoside transporter 1; 15 min, with: [3H]adenosine 50 nM).
With `Oc1ccc(/C=C/c2cc(O)cc(O)c2)cc1` the IC50 was 0.73 µM and 0.76 µM (Tpo; enzyme activity, inhibitor, LC-MS/MS, measured: monoiodotyrosine; rat thyroid microsomes; with: L-tyrosine substrate).
For `COc1ccccc1-c1cn(CC2CCN(C(C)=O)CC2)c2ncnc(N)c12`, the IC50 was over 2 µM (Calcium-dependent protein kinase 1 (CDPK1, Plasmodium falciparum, UniProt P62344); enzyme activity, inhibitor).
For `CCOC(=O)/C(O)=C/C(=O)c1cn(Cc2ccc(F)cc2)c2c(Cl)cccc2c1=O`, the IC50 was over 333 µM (gag-pol integrase; 3'-processing, inhibitor, gel-based; with: Mg2+).
`Nc1ccn([C@H]2CC[C@@H](COP(=O)(O)OP(=O)(O)OP(=O)(O)O)O2)c(=O)n1` has an IC50 of 1200 µM (POLA1 (Bos taurus, UniProt A0AAA9THK8); enzyme activity, inhibitor, radiometric).
With `[H]/N=C(\N/C(=N/[H])NCCCCCCNC(=N)NC(=N)Nc1ccc(Cl)cc1)Nc1ccc(Cl)cc1` the IC50 was 4.4 ± 0.6 µM (Enhanced intracellular survival protein (Gordonia bronchialis, UniProt Z9YDP2SNH3)).
For `CC(C)Oc1ccc(-c2c[nH]cc2CN(C)CC(N)=O)cc1`, the IC50 was over 10 µM (Protein arginine N-methyltransferase 8 (PRMT8, Homo sapiens, UniProt Q9NR22); enzyme activity, scintillation proximity; with: 3H-SAM).
